Experimental data of several laboratories.
A part holds a random share of what one study measured.

Sample 1
Target: Histone acetyltransferase KAT6A, winged helix 2, GST fusion (KAT6A, Homo sapiens, UniProt Q92794, residues 85-181)
Method: protein binding microarray
Molecule type: double-stranded DNA, one strand shown
Medium: in vitro
Concentration: not given
Setting: 8-mer, flanks averaged, mean of 2 arrays, mostly near background
Reference: not given
Direction: higher = stronger binding
Construct (chain): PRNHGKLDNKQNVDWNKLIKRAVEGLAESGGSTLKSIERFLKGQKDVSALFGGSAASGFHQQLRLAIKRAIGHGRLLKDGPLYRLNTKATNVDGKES
| Strand | E-score |
| --- | --- |
| CCCGGCTC | 0.242 |
| TAAGTATA | 0.0867 |
| TGCATCAA | 0.0965 |
| CTACAGTC | -0.0743 |
| AATGCCAA | 0.0652 |
| ATATTACG | 0.0611 |
| CCGCGTAA | 0.0243 |
| AACAGGCA | -0.0929 |
| CAACTTCG | -0.0317 |
| GAAACGGA | -0.00094 |
| ATTTCGTG | 0.147 |
| CCTACAAG | -0.0718 |
| ATAATTAG | 0.0527 |
| ATTCTAGC | 0.0659 |
| CAACGAGG | 0.109 |
| GCAACTAC | -0.0702 |
| GCAATTCA | 0.0555 |
| CTCGTATC | -0.015 |
| GCTGACTA | -0.0425 |
| CGAGAACG | 0.0548 |
| AAACACAG | 0.0427 |
| CACATTGC | -0.0015 |
| AACGACTG | -0.109 |
| AGCGGAGC | 0.171 |
| AGGTCGTC | 0.0492 |

Sample 2
Target: PABPC1L2, full length, GST fusion (mouse, UniProt A0ABA7IW68)
Method: RNAcompete
Molecule type: RNA
Medium: in vitro
Concentration: 20 nM
Setting: 7-mer, probes averaged, single round
Reference: mean of 7-mers
Direction: higher = stronger binding
Construct (chain): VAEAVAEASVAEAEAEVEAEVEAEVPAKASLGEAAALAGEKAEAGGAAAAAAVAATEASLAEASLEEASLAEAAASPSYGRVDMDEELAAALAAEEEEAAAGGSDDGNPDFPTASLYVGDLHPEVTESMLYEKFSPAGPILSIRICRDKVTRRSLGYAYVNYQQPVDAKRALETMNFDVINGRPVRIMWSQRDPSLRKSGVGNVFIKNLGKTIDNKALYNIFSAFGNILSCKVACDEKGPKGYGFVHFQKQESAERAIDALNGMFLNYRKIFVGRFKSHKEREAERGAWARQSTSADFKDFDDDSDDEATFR
| Strand | 7-mer Z-score |
| --- | --- |
| GGGCAAG | 0.323 |
| UCUAUAA | 0.441 |
| UUGAUGC | -0.244 |
| UCGAUUC | -0.298 |
| AGCUAUG | -0.0446 |
| CUAAUGA | -0.117 |
| GAGCACA | 0.128 |
| AAGAUUC | 0.175 |
| GCAUCAU | -0.18 |
| UGAGAUA | -0.0319 |
| CAGACGC | 0.0315 |
| ACUGUAU | -0.242 |
| AGCUACG | -0.219 |
| AUAAGCC | -0.262 |
| GUAUUUC | -0.331 |
| GAGCGGG | 0.149 |
| AGUAUGC | -0.153 |
| UCUGGUG | -0.224 |
| AUCGCAA | 0.00617 |
| CAUUUUA | -0.0301 |
| AAAUUUG | 1.88 |
| CUUCGUU | -0.518 |
| UCCAUUG | -0.248 |

Sample 3
Target: RNA binding protein fox-1 homolog 2, RRM domain, GST-SBP tag (RBFOX2, Homo sapiens, UniProt O43251-10, residues 100-194)
Method: RNA Bind-n-Seq
Molecule type: RNA
Medium: in vitro
Concentration: 365 nM
Setting: natural RNA segment, single round, ends assumed
Reference: no-protein control
Direction: higher = stronger binding
Constant ends, left off below: GGGAGUUCUACAGUCCGACGAUC … UGGAAUUCUCGGGUGCCAA
Residues (chain): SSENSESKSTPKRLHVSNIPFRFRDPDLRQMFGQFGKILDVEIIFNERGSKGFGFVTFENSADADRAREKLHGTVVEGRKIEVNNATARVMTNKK
| Strand | RBNS enrichment (R) |
| --- | --- |
| ACCUUUUGUCCUUUGGGGCUGGGCACCUCCAGACCCUCUGUGUGUCCCUGUCAUCUGGGGAUGGGGAGGAAUUCAGGCCUGUUCACUUCCCCAGUUCUGUAGCAGCCGAU | 0.284 |
| GCCCAGAAACCAGAAGCCCCUAUAGAGGCCCCAGUCCCAACUCCAGUAAAGACACUCUUGUCCUUGGGCAUGGCUGUGCUCUCCUUGCUGGGUGGGAAGGGCCCUCAGCU | 0.277 |
| GACCGAAUGGCUGGGUUUAGUAAAUAAAACACUAAGCAUGACGGGCUCCCGCCUCUUGCCGCUCUGCUCAGUCUGCUGUGGGAAUCCUUGCGUCCCAGCCCACCUCACCU | 1.07 |
| AGCCCUAAAUAAAUCUAAAGUCUAAAGUUUUAUUGAUGUGAAAUUAAAUUCUUAUUGGCCAAAUGCCUGUUUUGAUGAGUUGAUUUAUAAAGAUUUUUGUUAAGCUCAGG | 0.782 |
| GUGUGGCAUUUGUGUUCCAUUACCGGCCCCUUUAAGUAACGGCCUUCACAGCACCUUCCCAGUGGGUAGAAAGCCACACACCAGGAUGUGGGUCAACCAUGAAGAUGUGG | 0.324 |
| AACCUUCUGGCACACCUUGUACAGAGUUUUGGGGUUCACACCCCAAAAUGACCCAACGAUGUCCACACACCACCAAAACCCAGCCAAUGGGCCACCUCUUCCUCCAAGCC | 0.377 |
| AUUAAGGAAAAAUGUUUUUAAUAUACAUUCUUAUUUUGUCCCACCCCUCCAGAAAUAAGCUGGAAAUCUUAACUUUUUGGGGGGUCUUUUUUGGUGUUUUAAUGGGCCCA | 0.451 |
| UUUCCCUAGAUGAGACCUGAGGAACCCAGUUGCCCCUUCCCCCCACCCCCUUUACAGCUCCCAACUUGGGUCCUGUAAAUGGAGGUGUCAUUGCCAUCACCAUCGCCAGC | 0.369 |
| UAGCUGGGAAAACACUAGAGCUGCAGGUACCAGCCACUCGGCCCCAGGGGGUUAUGGCCACAGAGGGAUAGGCACAGUCUCCACCACCCUGGAGCCAAGGGUCUUUCACA | 0.569 |
| ACACCUUCAGCAGUGAAGGAUUCUAACACAGGGAAUCUGCAGUUUGUAGCAGAAUGGUAUUUUCCUCAAGUAGCUCAUAAUACUGCCAAAUCUCAAAAGUUAAGCUGAAU | 0.321 |
| GCCAUCGGAGGUGCCUGAAGAGCUUGUGUCAGGGAGCGGUUUGGCCAGUCAGAGACAAGUCCCAAGAGAUUUCAUGGAGCCUUGGAUGACACACACGCCAUCAGCCCUUG | 2.48 |
| ACUGGGCCCAGGCCAGGAGGGGCCCUGCCCAUGCCCACACUACAGGCCAGGGCUGCGGGGCUGGCGCAAUCCCAGCCCCCUUCCCCGGGCCACGGGGCCUUGGGUCCCUG | 0.379 |

Sample 4
Target: Centromere-binding protein 1, full length, N-terminal tag (CBF1, Saccharomyces cerevisiae, UniProt P17106, residues 1-351)
UniProt P17106, sequence (whole entry, looked up): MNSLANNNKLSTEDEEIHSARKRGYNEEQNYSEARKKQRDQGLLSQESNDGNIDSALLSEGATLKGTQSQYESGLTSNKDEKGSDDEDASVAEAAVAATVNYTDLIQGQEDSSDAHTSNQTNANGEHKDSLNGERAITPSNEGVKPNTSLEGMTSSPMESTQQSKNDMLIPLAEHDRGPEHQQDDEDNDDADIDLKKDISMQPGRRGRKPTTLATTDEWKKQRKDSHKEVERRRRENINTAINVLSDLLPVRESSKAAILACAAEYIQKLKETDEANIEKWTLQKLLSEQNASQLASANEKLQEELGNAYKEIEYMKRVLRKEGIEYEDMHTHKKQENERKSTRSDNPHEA
Method: protein-binding microarray
Molecule type: double-stranded DNA, one strand shown
Medium: in vitro
Concentration: 0.8 µM
Setting: whole 60-bp probe, no competitor
Direction: higher = stronger binding
Constant ends, left off below: … GTCTTGATTCGCTTGACGCTGCTG
| Strand | fluorescence intensity [a.u.] |
| --- | --- |
| CTAGAACAAATGTGTCACCAAGGTTGGAACAAATTC | 489 |
| TGTACGAAGCTATATCGCATGCATATAGTAGTTAGG | 503 |
| CTACCCCCATGCACTGATGGCGCTTGTATATAGTTC | 517 |
| CTATTTCTGGAAAATTCCACGAGGTCCGTATATTTC | 618 |
| CTAAGATTAATGGTGCATCAGAGCTTTCCCTTTTTC | 492 |
| GAAAGAGCCACACGGCACGCCGGGGTAGCTGTTTAG | 465 |
| GAACTTACAACTGGTGGTGGTTCATTACCTACGTAG | 513 |
| GAACTCTTTTCACTGCTCGTGCCGCTGCAACGCTAG | 707 |
| CTATATATATGCGGCTGCGTGCGTGTATTCTCCTTC | 555 |
| CTATTCCAGACATGTTGCGTGTTGTTATTCACTTTC | 540 |
| GAATATTATCAAGCCCTGATGACAGACTTTGCATAG | 522 |
| GAATATGATGGTGATGGTGACGGTGATGGTAATTAG | 549 |
| CTAATAATGCTATCACACGTGCATAATAAAATATTC | 5940 |
| TGTACGAAGCTATGTGTCACCTCTATAGTAGTTAGG | 508 |
| CTAGGTGAGAATCCTTCTGATGCATACTTTATGTTC | 503 |
| GAAGTTTGGCCCTGTCACGGTTCTTTTTATGGCTAG | 630 |
| CTATGTGATTATAATCACGTGATCAAATGCTTTTTC | 36600 |
| CTAAAAAAGAAGTTGAACGTGATTTCATTTGTTTTC | 1100 |
| GAACATGTACATACGCATGTGGCAATATGCCAATAG | 529 |
| GAAATGCGCATTAGCCACGTCCATCCCTTTCCCTAG | 496 |
| CTAGTTCTTGGGCACCTGATCTCAAATTGCAAGTTC | 3910 |
| TGTACGAAGCTATAGCACGATCCTATAGTAGTTAGG | 489 |
| CCTAACTACTATATCTTCGTGATATAGCTTCGTACA | 541 |
| GAATATAATTGACAGCACGAGGAGAAACAAAATTAG | 817 |
| CTATCGTTCATCGCAAGGGTGACGGCAGATGTATTC | 514 |

A few entries again (sample 4):
| Strand | fluorescence intensity [a.u.] |
| --- | --- |
| CTATATATATGCGGCTGCGTGCGTGTATTCTCCTTC | 555 |
| CTAGTTCTTGGGCACCTGATCTCAAATTGCAAGTTC | 3910 |
| GAACTCTTTTCACTGCTCGTGCCGCTGCAACGCTAG | 707 |
| GAAGTTTGGCCCTGTCACGGTTCTTTTTATGGCTAG | 630 |
| CTATTTCTGGAAAATTCCACGAGGTCCGTATATTTC | 618 |
| GAACATGTACATACGCATGTGGCAATATGCCAATAG | 529 |
| CTAAGATTAATGGTGCATCAGAGCTTTCCCTTTTTC | 492 |
| GAACTTACAACTGGTGGTGGTTCATTACCTACGTAG | 513 |
| CTAGGTGAGAATCCTTCTGATGCATACTTTATGTTC | 503 |
| GAAAGAGCCACACGGCACGCCGGGGTAGCTGTTTAG | 465 |
| CTATTCCAGACATGTTGCGTGTTGTTATTCACTTTC | 540 |
| TGTACGAAGCTATGTGTCACCTCTATAGTAGTTAGG | 508 |
| TGTACGAAGCTATATCGCATGCATATAGTAGTTAGG | 503 |
| TGTACGAAGCTATAGCACGATCCTATAGTAGTTAGG | 489 |
